Measurements collected from several papers.
Numbered parts are unrelated; each lists some results of a single study.
Chain of UniProt Q8TBX8 (whole entry, looked up): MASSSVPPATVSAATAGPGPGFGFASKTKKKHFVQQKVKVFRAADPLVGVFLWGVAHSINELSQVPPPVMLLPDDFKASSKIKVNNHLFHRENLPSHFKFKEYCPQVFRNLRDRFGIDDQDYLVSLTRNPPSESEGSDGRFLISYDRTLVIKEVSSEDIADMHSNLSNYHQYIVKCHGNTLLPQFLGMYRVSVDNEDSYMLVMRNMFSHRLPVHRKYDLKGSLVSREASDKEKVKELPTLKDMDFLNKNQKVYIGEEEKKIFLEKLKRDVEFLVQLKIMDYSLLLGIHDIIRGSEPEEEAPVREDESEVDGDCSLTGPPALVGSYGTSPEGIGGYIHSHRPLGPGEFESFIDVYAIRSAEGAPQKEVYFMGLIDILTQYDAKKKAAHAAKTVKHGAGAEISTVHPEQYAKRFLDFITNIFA
Chain of UniProt Q00532 (whole entry, looked up): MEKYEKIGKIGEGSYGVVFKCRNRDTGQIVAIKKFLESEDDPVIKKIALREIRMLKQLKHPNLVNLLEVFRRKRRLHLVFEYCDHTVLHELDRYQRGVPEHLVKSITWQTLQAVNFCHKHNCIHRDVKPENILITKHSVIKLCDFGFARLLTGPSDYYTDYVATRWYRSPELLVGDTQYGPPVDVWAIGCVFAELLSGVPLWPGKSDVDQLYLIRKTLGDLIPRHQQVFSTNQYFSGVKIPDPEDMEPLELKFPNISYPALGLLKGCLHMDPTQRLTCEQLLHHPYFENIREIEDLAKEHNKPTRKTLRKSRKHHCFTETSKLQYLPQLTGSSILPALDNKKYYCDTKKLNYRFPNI
Chain of UniProt P49761 (whole entry, looked up): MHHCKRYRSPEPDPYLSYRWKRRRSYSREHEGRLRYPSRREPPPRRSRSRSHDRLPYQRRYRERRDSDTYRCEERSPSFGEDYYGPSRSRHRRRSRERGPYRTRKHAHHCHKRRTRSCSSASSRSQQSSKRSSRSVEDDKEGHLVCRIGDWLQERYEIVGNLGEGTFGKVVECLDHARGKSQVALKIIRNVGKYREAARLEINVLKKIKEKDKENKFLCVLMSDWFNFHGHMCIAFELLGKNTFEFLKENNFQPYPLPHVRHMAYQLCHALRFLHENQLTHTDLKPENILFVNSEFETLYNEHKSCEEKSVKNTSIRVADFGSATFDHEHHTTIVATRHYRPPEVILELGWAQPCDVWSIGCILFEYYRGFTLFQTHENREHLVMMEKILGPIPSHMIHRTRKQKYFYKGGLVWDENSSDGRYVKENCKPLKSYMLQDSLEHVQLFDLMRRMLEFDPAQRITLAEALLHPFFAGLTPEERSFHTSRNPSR
Chain of UniProt Q9UK32 (whole entry, looked up): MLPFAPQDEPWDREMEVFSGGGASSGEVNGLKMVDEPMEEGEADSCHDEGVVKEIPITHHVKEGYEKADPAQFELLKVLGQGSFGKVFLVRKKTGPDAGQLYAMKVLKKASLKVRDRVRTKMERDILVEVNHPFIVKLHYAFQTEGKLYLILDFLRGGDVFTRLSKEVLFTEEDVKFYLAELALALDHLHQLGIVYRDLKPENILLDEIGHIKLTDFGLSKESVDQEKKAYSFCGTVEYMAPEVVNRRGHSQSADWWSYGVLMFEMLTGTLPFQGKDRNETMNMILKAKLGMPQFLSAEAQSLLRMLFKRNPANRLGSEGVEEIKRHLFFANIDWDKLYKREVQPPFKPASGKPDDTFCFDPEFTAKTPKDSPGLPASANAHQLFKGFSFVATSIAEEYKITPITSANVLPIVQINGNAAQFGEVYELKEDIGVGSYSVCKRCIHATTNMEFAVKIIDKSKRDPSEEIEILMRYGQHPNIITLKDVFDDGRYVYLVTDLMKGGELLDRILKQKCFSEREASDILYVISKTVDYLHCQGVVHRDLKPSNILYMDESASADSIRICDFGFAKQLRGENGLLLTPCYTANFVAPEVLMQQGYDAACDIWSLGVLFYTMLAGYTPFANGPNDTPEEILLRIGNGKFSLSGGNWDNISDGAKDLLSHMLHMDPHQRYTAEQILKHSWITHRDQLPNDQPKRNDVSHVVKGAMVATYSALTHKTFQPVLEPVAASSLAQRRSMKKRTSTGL
Chain of UniProt Q94JM3 (whole entry, looked up): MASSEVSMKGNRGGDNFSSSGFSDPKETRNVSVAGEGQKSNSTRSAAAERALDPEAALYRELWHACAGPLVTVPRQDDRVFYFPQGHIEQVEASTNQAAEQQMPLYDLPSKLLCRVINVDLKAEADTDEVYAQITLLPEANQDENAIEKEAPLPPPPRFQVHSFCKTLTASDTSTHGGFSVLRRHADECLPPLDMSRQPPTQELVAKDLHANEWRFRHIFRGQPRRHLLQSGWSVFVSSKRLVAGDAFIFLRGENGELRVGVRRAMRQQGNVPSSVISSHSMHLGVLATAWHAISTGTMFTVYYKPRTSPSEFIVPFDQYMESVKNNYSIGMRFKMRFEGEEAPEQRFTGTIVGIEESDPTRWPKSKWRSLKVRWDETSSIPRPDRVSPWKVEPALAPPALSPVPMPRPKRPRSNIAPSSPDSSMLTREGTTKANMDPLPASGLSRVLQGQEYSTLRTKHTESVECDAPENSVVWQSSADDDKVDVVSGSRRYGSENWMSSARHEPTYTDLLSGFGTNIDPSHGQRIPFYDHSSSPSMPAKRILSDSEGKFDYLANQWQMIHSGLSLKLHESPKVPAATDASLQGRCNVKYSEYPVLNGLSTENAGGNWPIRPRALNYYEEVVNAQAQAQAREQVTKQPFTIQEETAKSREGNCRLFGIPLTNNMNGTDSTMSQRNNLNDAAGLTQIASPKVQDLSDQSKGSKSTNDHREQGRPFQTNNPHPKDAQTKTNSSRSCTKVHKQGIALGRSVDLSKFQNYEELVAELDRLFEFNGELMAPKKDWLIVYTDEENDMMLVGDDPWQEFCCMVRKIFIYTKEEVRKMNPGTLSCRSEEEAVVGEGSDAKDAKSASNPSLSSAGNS
Chain of UniProt Q9ZTX8 (whole entry, looked up): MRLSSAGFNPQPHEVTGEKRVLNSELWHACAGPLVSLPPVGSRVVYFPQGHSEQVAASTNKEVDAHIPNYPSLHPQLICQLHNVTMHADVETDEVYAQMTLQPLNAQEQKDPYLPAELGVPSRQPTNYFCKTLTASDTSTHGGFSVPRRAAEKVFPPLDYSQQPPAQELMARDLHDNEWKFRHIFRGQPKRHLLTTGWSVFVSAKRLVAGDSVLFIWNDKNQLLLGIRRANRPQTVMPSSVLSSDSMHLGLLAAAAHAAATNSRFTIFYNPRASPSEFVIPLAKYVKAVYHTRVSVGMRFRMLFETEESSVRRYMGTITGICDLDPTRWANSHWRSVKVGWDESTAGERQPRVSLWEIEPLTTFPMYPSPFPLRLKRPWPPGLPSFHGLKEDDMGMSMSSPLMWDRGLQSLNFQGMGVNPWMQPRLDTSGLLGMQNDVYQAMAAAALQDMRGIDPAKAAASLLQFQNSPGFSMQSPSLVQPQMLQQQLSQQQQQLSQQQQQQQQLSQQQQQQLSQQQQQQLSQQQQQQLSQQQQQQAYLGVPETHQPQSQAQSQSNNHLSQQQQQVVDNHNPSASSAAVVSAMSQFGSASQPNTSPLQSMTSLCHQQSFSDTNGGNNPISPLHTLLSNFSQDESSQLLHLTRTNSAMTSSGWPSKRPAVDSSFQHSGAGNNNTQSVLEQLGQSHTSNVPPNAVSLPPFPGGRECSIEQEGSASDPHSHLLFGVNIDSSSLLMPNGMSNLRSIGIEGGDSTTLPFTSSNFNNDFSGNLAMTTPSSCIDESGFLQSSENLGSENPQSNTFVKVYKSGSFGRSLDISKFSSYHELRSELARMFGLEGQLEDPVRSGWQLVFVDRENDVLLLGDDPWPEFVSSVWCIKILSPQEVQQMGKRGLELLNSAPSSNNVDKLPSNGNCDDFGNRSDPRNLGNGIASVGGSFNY
Chain of UniProt P42684 (whole entry, looked up): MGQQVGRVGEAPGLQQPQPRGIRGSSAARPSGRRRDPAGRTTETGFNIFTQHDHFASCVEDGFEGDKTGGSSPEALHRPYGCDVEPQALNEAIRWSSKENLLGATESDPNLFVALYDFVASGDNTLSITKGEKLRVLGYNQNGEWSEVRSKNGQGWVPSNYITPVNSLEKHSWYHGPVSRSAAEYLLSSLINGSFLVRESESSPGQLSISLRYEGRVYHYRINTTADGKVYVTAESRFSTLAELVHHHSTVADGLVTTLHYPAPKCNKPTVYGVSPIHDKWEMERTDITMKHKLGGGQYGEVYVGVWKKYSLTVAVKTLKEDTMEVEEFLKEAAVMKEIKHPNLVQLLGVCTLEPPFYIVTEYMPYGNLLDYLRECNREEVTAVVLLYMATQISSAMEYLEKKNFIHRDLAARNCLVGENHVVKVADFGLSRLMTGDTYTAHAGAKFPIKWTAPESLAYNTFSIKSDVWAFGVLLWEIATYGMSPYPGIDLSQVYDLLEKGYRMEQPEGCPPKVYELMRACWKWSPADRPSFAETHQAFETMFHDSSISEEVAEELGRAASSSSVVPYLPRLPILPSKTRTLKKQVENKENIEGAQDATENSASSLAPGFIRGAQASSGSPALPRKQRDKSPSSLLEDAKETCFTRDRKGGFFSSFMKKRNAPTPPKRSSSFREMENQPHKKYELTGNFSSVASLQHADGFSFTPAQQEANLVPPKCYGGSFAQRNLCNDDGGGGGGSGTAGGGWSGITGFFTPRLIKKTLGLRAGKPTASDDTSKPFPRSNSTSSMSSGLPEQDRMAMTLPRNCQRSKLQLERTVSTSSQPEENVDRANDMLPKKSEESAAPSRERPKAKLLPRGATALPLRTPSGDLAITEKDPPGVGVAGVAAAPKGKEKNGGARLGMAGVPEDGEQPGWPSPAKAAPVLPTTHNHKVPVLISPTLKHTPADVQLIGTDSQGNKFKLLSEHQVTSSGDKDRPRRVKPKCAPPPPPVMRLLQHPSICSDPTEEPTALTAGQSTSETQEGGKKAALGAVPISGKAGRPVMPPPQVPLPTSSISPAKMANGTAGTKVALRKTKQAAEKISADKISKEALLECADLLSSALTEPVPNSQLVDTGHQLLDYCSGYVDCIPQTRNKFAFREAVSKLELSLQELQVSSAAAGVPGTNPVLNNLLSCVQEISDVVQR

Series 1
Molecule: B1 (IAA28)
Technique: two-hybrid
Relative to: out of 4 tests
Direction: higher = firmer interaction
B1: IAA28 (Arabidopsis thaliana, UniProt Q9XFM0); chain MEEEKRLELRLAPPCHQFTSNNNINGSKQKSSTKETSFLSNNRVEVAPVVGWPPVRSSRRNLTAQLKEEMKKKESDEEKELYVKINMEGVPIGRKVNLSAYNNYQQLSHAVDQLFSKKDSWDLNRQYTLVYEDTEGDKVLVGDVPWEMFVSTVKRLHVLKTSHAFSLSPRKHGKE
For ARF2 727-859 (Arabidopsis thaliana, UniProt Q94JM3): positive tests read 0.
The positive tests was 3 (ARF6 790-935 (Arabidopsis thaliana, UniProt Q9ZTX8)).
The positive tests was 4 (ARF5 788-902 (Arabidopsis thaliana, UniProt P93024)).
IAA33 (Arabidopsis thaliana, UniProt Q9FKM7) — positive tests: 2.
For ARF1 538-665 (Arabidopsis thaliana, UniProt Q8L7G0): positive tests read 0.

Series 2
SMILES: Cc1c(C(=O)O)cc(-c2ccc(C3CCNCC3)cc2)c2ccc(-c3ccc(C(F)(F)F)cc3)cc12
Concentration: 1 µM
The remaining binding was 100% (CSNK1D (Homo sapiens, UniProt P48730); cell-free assay, competition with immobilised ligand).
It gave 100% for remaining binding (ABL2 (Homo sapiens, UniProt P42684); binding, competition with immobilised ligand).
SBK1 (Homo sapiens, UniProt Q52WX2); binding, competition with immobilised ligand — remaining binding: 100%.
For CDKL1 (Homo sapiens, UniProt Q00532); binding, competition with immobilised ligand: remaining binding read 82%.
For DAPK3 (Homo sapiens, UniProt O43293); binding, competition with immobilised ligand: remaining binding read 100%.
Ribosomal protein S6 kinase alpha-6, N-terminal kinase domain (RPS6KA6, Homo sapiens, UniProt Q9UK32); binding, competition with immobilised ligand — remaining binding: 100%.
For MAP2K5 (Homo sapiens, UniProt Q13163); binding, competition with immobilised ligand: remaining binding read 100%.
It gave 100% for remaining binding (PIP4K2C (Homo sapiens, UniProt Q8TBX8); binding, competition with immobilised ligand).
The remaining binding was 84% (STK38 (Homo sapiens, UniProt Q15208); binding, competition with immobilised ligand).
For EGFR (Homo sapiens, UniProt P00533, T790M); cell-free assay, competition with immobilised ligand: remaining binding read 87%.
For CDK19 (Homo sapiens, UniProt Q9BWU1); competition binding: remaining binding read 100%.
The remaining binding was 100% (CLK3 (Homo sapiens, UniProt P49761); binding, competition with immobilised ligand).
For MET (Homo sapiens, UniProt P08581, M1250T); cell-free assay, competition with immobilised ligand: remaining binding read 97%.
The remaining binding was 100% (EGFR (Homo sapiens, UniProt P00533, L858R); cell-free assay, competition with immobilised ligand).

Series 3
Target: TAR DNA-binding protein 43, full length, His tag (TARDBP, Homo sapiens, UniProt Q13148, residues 1-414)
Technique: RNA Bind-n-Seq
Form: RNA
Medium: in vitro
Concentration: 20 nM
Setting: 6-mer, flanks averaged, single round
With: 150 mM LiCl
Relative to: input library
Direction: higher = stronger binding
`UAGCGC`: “6-mer enrichment (R)” 0.946.
For `GUAAAU`, “6-mer enrichment (R)” read 0.942.
`UUUUAU`: “6-mer enrichment (R)” 1.4.
`GUUAAC`: “6-mer enrichment (R)” 0.909.
`ACCUGA`: “6-mer enrichment (R)” 0.853.
`CCUGUU`: “6-mer enrichment (R)” 1.01.
`AAGAAG`: “6-mer enrichment (R)” 0.993.
`ACACAG`: “6-mer enrichment (R)” 0.837.

Single results of other studies
Under “patients with TEAE”, `CC(C)n1cnc(-c2ccc(F)cc2)c1-c1ncc(C(=O)Nc2ccc(N3CCN(C)CC3)cc2)[nH]1` is recorded as 0% (phase 2a trial; idiopathic pulmonary fibrosis patients; oral, 60 mg once daily, disc protrusion, grade 3).
